Measurements of several laboratories.
Each numbered part is a random draw from the data of one study; scales do not carry over between parts. Positions count from the first letter of the parent shown.

Series 1 — target: CCNA2, cyclin fold, Cln2 fusion (human); technique: yeast growth competition, sequencing; matrix: yeast; setting: strong parent motif; relative to: not given; reading: higher = stronger binding
Parent: CDC6 docking peptide (human); TLKGRRLVFDNQL
| Substitution | normalised enrichment score |
| --- | --- |
| FLKGRRLVFDNQL [T1F] | 2.58 |
| TLKGRRLVFDNQR [L13R] | 3.22 |
| TLKGRRLPFDNQL [V8P] | 0.415 |
| TLKGRWLVFDNQL [R6W] | -0.0499 |
| TLKGRRLVFNNQL [D10N] | 2.79 |
| TLKGRQLVFDNQL [R6Q] | 1.36 |
| TLKGRRLVHDNQL [F9H] | 1.1 |
| TCKGRRLVFDNQL [L2C] | 2.61 |
| DLKGRRLVFDNQL [T1D] | 1.33 |
| TLQGRRLVFDNQL [K3Q] | 1.55 |
| TLKGRRLTFDNQL [V8T] | 2.97 |
| TYKGRRLVFDNQL [L2Y] | 4.19 |
| CLKGRRLVFDNQL [T1C] | 2.62 |
| TLKGKRLVLDNQL [R5K F9L] | 0.445 |
| TLKGPRLVFDNQL [R5P] | -0.473 |
| TLKGRRLVFDCQL [N11C] | 2.83 |
| TLKGWRLVFDNQL [R5W] | -0.198 |
| TLKIRRLVFDNQL [G4I] | 2.48 |
| TLKGRFLVFDNQL [R6F] | -0.156 |
| TLKGRYLVFDNQL [R6Y] | 0.614 |
| TLKGRRLDFDNQL [V8D] | 4.23 |
| TLKGRRGVFDNQL [L7G] | 0.633 |
| TLKGRRLVFDDQL [N11D] | 3.63 |
| TLKGRHLVFDNQL [R6H] | 0.311 |
| TLKGRRLVCDNQL [F9C] | 0.324 |

Series 2 — technique: protein binding microarray; molecule type: double-stranded DNA, one strand shown; matrix: in vitro; concentration: not given; relative to: not given; reading: higher = stronger binding
Target: Histone acetyltransferase KAT6A, winged helix 1, GST fusion (KAT6A, Homo sapiens, UniProt Q92794, residues 1-85)
Setting: 8-mer, flanks averaged, mean of 2 arrays, mostly near background
Target sequence (chain): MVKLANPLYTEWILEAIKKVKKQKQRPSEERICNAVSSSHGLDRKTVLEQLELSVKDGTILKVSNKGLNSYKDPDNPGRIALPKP
| Strand | E-score |
| --- | --- |
| ATTTCACC | -0.184 |
| TTCCAGAA | -0.0823 |
| AATTACCG | 0.219 |
| CGGCTCAC | 0.201 |
| CGAATAGC | -0.0983 |
| TCGGCACA | 0.138 |
| AACTGTGA | -0.0196 |
| AGGGGAGA | -0.00605 |
| AATAGTTC | -0.053 |
| GCACTCGC | 0.207 |
| AAACTGAG | -0.0832 |
| ACGGGCGC | 0.416 |
| CATCCTAG | -0.132 |
| CTGACCCA | -0.22 |
| AAGTAAAG | -0.0506 |
| GGCCGTTA | 0.25 |
| ATACTCGG | 0.113 |
| CATCAGAC | -0.0892 |
| CAGTGTTC | -0.0221 |
| GTCTCTTA | -0.0377 |
| TGAACCAA | -0.318 |
| AGATTCAA | -0.198 |
| AGCCTCCC | 0.0155 |
| ACTTGGAG | -0.123 |
| CCCAGGCC | -0.0912 |

Series 3 — technique: competition protein-binding microarray; molecule type: double-stranded DNA, one strand shown; matrix: in vitro; concentration: 2 µM; together with: Cbf1 competitor, 0.05 µM; reading: higher = stronger binding; shared flanks, not repeated: … GTCTTGATTCGCTTGACGCTGCTG
Target: Phosphate system positive regulatory protein PHO4, full length, GST-tagged (PHO4, Saccharomyces cerevisiae, UniProt P07270, residues 1-312)
Setting: whole 60-bp probe, lowest competitor level
Target sequence (chain): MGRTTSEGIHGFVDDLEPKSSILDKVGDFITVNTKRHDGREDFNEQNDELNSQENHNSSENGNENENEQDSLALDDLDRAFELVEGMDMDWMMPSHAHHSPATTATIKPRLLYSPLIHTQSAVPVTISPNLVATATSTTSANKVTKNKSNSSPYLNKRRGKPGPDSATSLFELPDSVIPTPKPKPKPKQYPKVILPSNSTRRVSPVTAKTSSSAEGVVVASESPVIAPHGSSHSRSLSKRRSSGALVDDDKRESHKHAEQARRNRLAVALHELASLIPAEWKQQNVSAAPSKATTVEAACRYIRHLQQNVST
| Strand | fluorescence intensity |
| --- | --- |
| TGCGCAACAACTTGTTCTGTGGGTGTATGTCTAGAA | 4120 a.u. |
| TGATTGTGGAATTGGCAGGCGTGAAGTTCAAATCCG | 4280 a.u. |
| CGGGGTTAAGTTTGGTGCGTGGGTGGCTTGCAGCAG | 8600 a.u. |
| GGCCACGGCACAAATATGATGTAGTACTAAGATTTT | 4420 a.u. |
| AAAGCGGTAATTTTTCACGTGGCTTCACATATCTAT | 13300 a.u. |
| TGCGCAACAACTTGGTGAGTGGGTGTATGTCTAGAA | 4940 a.u. |
| TATATGTAGTATCCACACGTGGACGACCATTAACGA | 14800 a.u. |
| CTTCTGTAAATTTTTCACGTGTCGTGAAGCGCCCCG | 11100 a.u. |
| CTTTCCCGATCTTGTCACCCAACTTTAGCACATTTG | 3920 a.u. |
| GCCGAACTCTTTTATCATGTGATATGAATATGTTGG | 6960 a.u. |
| CTAACGAAGGTTTGTCACGTCACTTACAAGCCAAGT | 4300 a.u. |
| CGTCCTAGTGATTGTCACTATACTTCCATGAGGAAG | 4090 a.u. |
| AAAGCGGTAATTTTTCACGTGACTTCACATATCTAT | 10900 a.u. |
| GGTGTTTGGTAGAGTCAGGTGATTTACTGATTCTTC | 4080 a.u. |
| ATTTGAAAAATTGGCAATGTGATATTCGGTTAAGGA | 5440 a.u. |
| CGTCCTAGTGATTGTGTCGTGGGTGCCATGAGGAAG | 8750 a.u. |
| GATTTGAATACAACCGTCGTGCCGAACATCGCGGTT | 6900 a.u. |
| GTATGAATGCCGCTGTTCGTGCCGATGTTCGTACAG | 6920 a.u. |
| TGCGCAACAACTTGATCAGTGGGTGTATGTCTAGAA | 4670 a.u. |
| AAATTACTAAGTTGTTCCGTGGGTGACGCCGTATGA | 5060 a.u. |
| GAGGGCACTTTCTGGCACATGCGGCCGCAACAAGGA | 10100 a.u. |

Series 4 — technique: RNA Bind-n-Seq; molecule type: RNA; matrix: in vitro; concentration: 100 nM; relative to: input RNA pool; reading: higher = stronger binding
Target: RING finger protein unkempt homolog, zinc fingers 1-6, SBP tag (UNK, Homo sapiens, UniProt Q9C0B0, residues 30-357)
Sequence of UniProt Q9C0B0 (30-357, looked up): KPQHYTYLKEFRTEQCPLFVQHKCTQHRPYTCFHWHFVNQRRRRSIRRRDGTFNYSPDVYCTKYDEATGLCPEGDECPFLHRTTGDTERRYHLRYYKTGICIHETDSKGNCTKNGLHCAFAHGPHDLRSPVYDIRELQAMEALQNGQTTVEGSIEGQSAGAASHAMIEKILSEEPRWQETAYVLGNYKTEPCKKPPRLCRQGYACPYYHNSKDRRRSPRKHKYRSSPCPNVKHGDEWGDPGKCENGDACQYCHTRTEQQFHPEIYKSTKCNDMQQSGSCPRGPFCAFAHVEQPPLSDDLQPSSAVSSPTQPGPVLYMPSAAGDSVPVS
Setting: RNA with constant flanks, vertebrate orthologous sites, ends assumed
Shared flanks, not repeated: GGGAGUUCUACAGUCCGACGAUC … CAACAGAGGAUUGAGCAUCA
| Strand | bound/input enrichment [ratio] |
| --- | --- |
| UGUGUUGGUGCAGAGCGCUCUGUGCCAGUGCUCAUCAUCCCUUCUUCACACCACUGUCCCUAGUUAUAGGAAUUUAAUAUUUUUAAAAGUUUUACAUUGCUGUAUAUUCAAAGAUUUGUU | 0.921 |
| CCGAAAGGCCAAAUUCCCUCCUCCCUUCUACUGCUUCUACCAACUGGAAGCACAGAAAACUAGAAUUUCAUUUAUUUUGUUUUUAAAAGAUACGUUGAUUUCUUGUAACAUCCGAUAGGA | 0.612 |
| CAGCCGAUUCACUUAUUGGGAGAGCUGCACAUAUUGCUGUUCUUGAUUCAGAAAUAUUUUUAGAAAAAUUCUUUCUGGUGGCUGCUCUAAAAUAUUUCCAGUAGCCAAAAAGCAUUGUUA | 0.625 |
| AGCAACUCAAGGAUUGAGGACUGGUUUUACAAAUAUACCAAGUAGAUAUGGAACUAAUAAUAGAAUUGGACAACCAAGACCAUGAUAGACUCUAACUUAUUUUUAUAAGGAAUAUUGACU | 0.369 |
| AGAAAAUUUUAACCAAGAAUCCGAAGGUAGAAAUACAGGACCGUGGUUGUCUUCCUCACUUAGAAAUAGAUGCACACCUUUGUUCUCUAGAAGGAGACGAGAGGGACGAGAUGAAUCUUC | 0.514 |
| UUAUAUGGGCCUCGCAGAGUUGAAGUAAUUGAAGAAGAAACUUCACAGUAAUCAUCAUCUUAGUAUCUCUGACUAGGUGUGGAAUAAAUGUUGUUCGUUGAUCAUUUCUAAACCCCAGAG | 0.729 |
| GUUGGGUCAUGACCCUUACAGGUUAGGUCAUGAUGCUUACAGGUUAGGACAAGAUCCCUAUAGAUUAGGGCAUGAUCCAUAUAGACUAACUCCUGAUCCCUAUAGGAUGUCACCUAGACC | 0.47 |
| CUGAAGCUUUCUAUUUGGCUGCACUUGCAUAAGCUGCAACAAACAGAAUAAAGAAUUUCAUAUCCUCUGUCUAUCAUUUAGAUGCAUGGUCAAUGAGCUUUGCACACAAUGUGUUUGGAG | 0.344 |
| GGUUGAUGUUCUGAAAAACCACCUAGUGAAAGAAGGUCGGGUAGAUGAAGAAAUUGCACUUAGAAUUAUCAAUGAGGGUGCUGCCAUCCUUCGGAGAGAGAAAACAAUGAUAGAAGUAGA | 0.778 |
| UUGUACUUGGAAAAAGUCAUCUUUAGUUUUAAACUAGUCACGGUGAUACCUAGUCUGUGCUAGUGGAAUCAUUUACUCUUACCUUUUAAACUAUCUCCUCUGUCUGAUACCUGAAACCAG | 0.618 |
| UUGUGACUGCCUCUCCAAACAAGAAUAGUAAUAAGAAAAACAAACAAAAUGAUAUUUGUAUAGAAAACUCAGAAAUCAAAUCAUGUAAAGUAAAUGUUGGCAGUGUUUCAUGCCCUAAUG | 1.62 |

Series 5 — technique: protein-binding microarray; molecule type: double-stranded DNA, one strand shown; matrix: in vitro; concentration: 2540 nM top; setting: 60-bp whole probe; together with: salmon DNA 0.4 mg/ml; relative to: random background probes; reading: higher = stronger binding; shared flanks, not repeated: GCCTAGCAC … GTCTTGATTCGCTTGACGCTGCTG
Target: Interferon regulatory factor 3, full length, phosphomimetic (IRF3, Homo sapiens, UniProt Q14653, residues 1-427, S386D/S396D/S398D/S402D/T404D/S405D)
Target sequence (chain): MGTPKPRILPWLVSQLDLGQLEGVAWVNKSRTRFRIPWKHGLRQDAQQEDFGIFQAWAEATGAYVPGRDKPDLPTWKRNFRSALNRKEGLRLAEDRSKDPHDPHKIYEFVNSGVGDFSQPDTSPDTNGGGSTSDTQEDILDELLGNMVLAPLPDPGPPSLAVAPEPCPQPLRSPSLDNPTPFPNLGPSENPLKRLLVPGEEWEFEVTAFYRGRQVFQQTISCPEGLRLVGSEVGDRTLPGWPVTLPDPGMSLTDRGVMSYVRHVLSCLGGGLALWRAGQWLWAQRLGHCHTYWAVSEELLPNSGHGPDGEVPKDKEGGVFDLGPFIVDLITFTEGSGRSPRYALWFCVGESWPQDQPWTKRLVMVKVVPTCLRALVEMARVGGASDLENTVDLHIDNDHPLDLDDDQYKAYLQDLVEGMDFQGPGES
| Strand | fitted relative affinity [z-score] |
| --- | --- |
| ATAGGTTTCCTACTGCTTTAGTGCTAG | 4.91 |
| TTAGGTTTCCTACCGCTTTAGTGCTAG | 3.65 |
| TTAGGTATCGTTCTCGGTTAGTGCTAG | 4 |
| TTAGGTATCGACTATCGCTTAGTGCTA | 0.29 |
| TCACTAATGTTTTTTAAACTGTGCTAG | 0.271 |
| GACGGTATCCTTTTACTGACGTGCTAG | 7.21 |
| TTTTTTTTATTTATAAATTAGTGCTAG | 1.93 |
| TTAGGGTTCGGACTGGGTTAGTGCTAG | -0.122 |
| TTAGGTCTCCTTTTCCATTAGTGCTAG | 5.02 |
| TCAGAACTCAACTGTCTGACTGTGCTA | 0.173 |
| GAACATACTAGTTTCCATTTGTGCTAG | 6.35 |
| TCATAATTTACTTTGGTACTGTGCTAG | 0.269 |
| GACGAACTGAGTAGCGAGACGTGCTAG | -0.232 |
| TTGCCAATGCTTCTGGTCTTGTGCTAG | -0.421 |
| GACGGTATCGACTACCGGGACGTGCTA | 0.56 |
| TTAGGTTCCCTCTTCCTTTAGTGCTAG | 5.2 |
| GATTTTTTTCATATATATATGTGCTAG | 1.29 |
| TTTGGTTTGTACACCGCCTTGTGCTAG | -0.098 |
| TTAGATTTCGGGACCGGATTAGTGCTA | 1.49 |
| CACGAACTGAGACTGGAGACGTGCTAG | -0.274 |
